Measured values of several laboratories.
Lines come from different studies, so protocols differ.
Cas13d full length assumed: Cas13d full length assumed (Eubacterium siraeum, UniProt B0MS50)
CSTF2: CSTF2 1-107 (Homo sapiens, UniProt P33240)
Sequence of UniProt P33240 (whole entry, unmodified, looked up): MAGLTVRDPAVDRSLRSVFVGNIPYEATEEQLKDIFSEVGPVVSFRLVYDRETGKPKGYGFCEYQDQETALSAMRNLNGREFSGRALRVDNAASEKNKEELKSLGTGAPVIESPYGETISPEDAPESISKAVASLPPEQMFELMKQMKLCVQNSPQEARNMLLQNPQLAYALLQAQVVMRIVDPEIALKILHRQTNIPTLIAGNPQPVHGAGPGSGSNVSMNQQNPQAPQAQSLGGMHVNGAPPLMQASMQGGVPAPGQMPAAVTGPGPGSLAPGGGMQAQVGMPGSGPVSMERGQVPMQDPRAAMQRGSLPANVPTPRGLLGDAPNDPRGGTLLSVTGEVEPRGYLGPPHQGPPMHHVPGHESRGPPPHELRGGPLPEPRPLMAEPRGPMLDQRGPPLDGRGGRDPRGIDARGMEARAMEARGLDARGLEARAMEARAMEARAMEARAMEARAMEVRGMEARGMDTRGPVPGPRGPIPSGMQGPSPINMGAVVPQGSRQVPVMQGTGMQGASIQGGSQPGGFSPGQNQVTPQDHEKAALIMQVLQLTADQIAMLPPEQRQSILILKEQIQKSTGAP

CAACTGGGTTTCAGGCGAAACATTCGGTCATG (dsDNA) — binding (nalD full length assumed (Pseudomonas aeruginosa, UniProt Q9HY46); EMSA; double-stranded DNA, one strand shown): binds
CACCCGUGCAAAAAUGCAGGGGUCUAAAACUGAGCGGAUAACCUCUCUAUGG (ssRNA; crRNA hairpin, direct repeat-spacer) — binding (Cas13d full length assumed; cryo-EM; folded RNA): binds
GCCGCCCCTCCCGTGTGCTCGCGCCCTGCCTCCGGCACCAAACTGAGTACAGCGTACCCGATTACGCGTACGCCGTACCCAGTTTTTCTTCGAGGACCTAAGCTGGCTCC (dsDNA) — binding (drrR1 full length assumed (Streptomyces coeruleorubidus, UniProt P0DXY9); competition; double-stranded DNA, one strand shown; excess unlabelled DNA): binds
ATTAGTTTGTATGCAAACCATT (dsDNA) — binding (MarR-family transcriptional regulator 1-147 (Clostridioides difficile, UniProt A0A9R0BIW1); EMSA; double-stranded DNA, one strand shown): binds
TTTATAAAAAACCAATATATGTCTTGACACATGTAAAAAACGTTGTATAATG (dsDNA) — binding (niaR 1-174 K97Q (Streptococcus mutans, UniProt Q8DVX8); EMSA; double-stranded DNA, one strand shown): no binding
AUUUUAUGUUUCAGGU (ssRNA (simian virus 40); phosphorothioate at nucleotide 2) — binding (CSTF2; NMR PRE; RNA): binds
GGGAGUCGACCGACCAGAAUGAUUGUUGUGUGUAUUGGGUGGCGGUAUGUGCGUCUACAUCUAGACUCAU (XNA; 2'-fluoro pyrimidines) — binding (etfB 1-253 (Leptospira interrogans, UniProt Q8F8Y6); pull-down; modified nucleic acid): binds
insulin human — fold change (measured: GLS mRNA; uninfected mouse, brain; i.p., dose not given; reference: PBS): 1.1
RNA 1 CACCCGUGCAAAAAUGCAGGGGUCUAAAACUGAGCGGAUAACCUCUCUAUGG / RNA 2 CGUACCAUAGAGAGGUUAUCCGAUCACCGA (crRNA/target DNA; mismatch at position 4) — binding (Cas13d full length assumed; cryo-EM; intermediate state): binds
AUUUUAUGUUUCAGGU (ssRNA) — binding (CSTF2 1-107 K57E (Homo sapiens, UniProt P33240); ITC; RNA; 27 °C): no binding
AAATGTGGTTGATCCAGTCAACTATTTTG (dsDNA) — binding (mexR 1-142 (Pseudomonas aeruginosa, UniProt P52003); EMSA; double-stranded DNA, one strand shown): binds
UUAUGUUU (ssRNA) — binding (CSTF2; NMR titration; RNA; 27 °C): binds
UUUUUUUUUUUUUUUUUUUUUUUUUUUUUU (ssRNA) — binding (SKI2/SKI3/SKI8 1-1287, 1-1432, 1-397 (Saccharomyces cerevisiae); cryo-EM; RNA; added: AMP-PNP): binds
CCTTAAGCGAGCCTTAAGTGA (dsDNA) — binding (carR 1-223 D51E/R211A (Pseudomonas aeruginosa, UniProt Q9I0I1); EMSA; double-stranded DNA, one strand shown): no binding

Some of these lines once more:
UUUUUUUUUUUUUUUUUUUUUUUUUUUUUU (ssRNA) — binding (SKI2/SKI3/SKI8 1-1287, 1-1432, 1-397 (Saccharomyces cerevisiae); cryo-EM; RNA; added: AMP-PNP): binds
CCTTAAGCGAGCCTTAAGTGA (dsDNA) — binding (carR 1-223 D51E/R211A (Pseudomonas aeruginosa, UniProt Q9I0I1); EMSA; double-stranded DNA, one strand shown): no binding
